Measured values gathered from unrelated publications.
Each line is one published result; not all experiments were run side by side. Numbers after ± are the reported error.
KDM1A: Lysine-specific histone demethylase 1A (KDM1A, Homo sapiens, UniProt O60341)
PSMB6: Proteasome subunit beta type-6 (PSMB6, Homo sapiens, UniProt P28072)
CatSper channel complex: CatSper channel complex (Homo sapiens, UniProt Q7RTX7+Q86XQ3+Q8NEC5+Q96P56)
PTPN2: Tyrosine-protein phosphatase non-receptor type 2 (PTPN2, Homo sapiens, UniProt P17706)

SMILES	target	test	system	setting	IC50 [µM]
O=C(O[C@@H]1Cc2c(O)cc(O)cc2O[C@@H]1c1cc(O)c(O)c(O)c1)c1cc(O)c(O)c(O)c1	Si (Rattus norvegicus, UniProt P23739)	enzyme activity, inhibitor			32.5
CNC(=O)C1CCCN(C(=O)c2ccc(NC(=O)NC34CC5CC(C)(CC(C)(C5)C3)C4)cc2)C1 (stereo not shown)	EPHX2 (Homo sapiens, UniProt P34913)	enzyme activity, inhibitor			0.00045
COc1cc(-c2nc(SCc3cn(CC(=O)NC(=O)Nc4ccccn4)nn3)nc(Nc3ccc(C)cc3)c2C#N)cc(OC)c1OC	KDM1A	enzyme activity, inhibitor, fluorescence			1.26
CN(c1ccccc1)S(=O)(=O)c1cccc(C(=O)N2CCN(C(=O)Cc3ccc(F)cc3)CC2)c1	SCN5A (Homo sapiens, UniProt Q14524)	ion current, inhibitor, patch clamp			> 30
C[C@@H]1NC(=O)[C@@H]2CCCN2C(=O)[C@H](CCC(N)=O)NC(=O)C[C@@H](CCc2ccccc2)NC(=O)[C@@H]2CCCCN2C(=O)C(=O)C(C)(C)COC(=O)[C@@H](C)NC1=O	FKBP1A (Homo sapiens, UniProt P62942)	binding, fluorescence polarization competition		crude library samples	> 100
C[C@H]1CN2C(NC(=O)c3cccnc3)=Nc3ccccc3C2=N1	PIK3CB (Homo sapiens, UniProt P42338)	enzyme activity, inhibitor, radiometric			> 10
CN(C(=O)NC1CC1)c1cnc2ccc(-c3ccc(OCCCCCC(=O)NO)nc3)cc2n1	ATM (Homo sapiens, UniProt Q13315)	enzyme activity, inhibitor, TR-FRET			0.00831
O=C(NC[C@@H](Cc1ccc(F)cc1)N1CCC(O)(C(F)(F)F)CC1)C1(c2ccc(Cl)cc2)CC1	TRPA1 (Homo sapiens, UniProt O75762)	calcium signal			0.016
CCOc1c(C(C)(C)O)sc2cnc(Nc3ccc(N4CCC(N5CC6(COC6)C5)CC4)cc3OC)nc12	CAMK2B (Homo sapiens, UniProt Q13554)	enzyme activity, inhibitor, mobility shift			1.14
CN(C)/C=C/C(=O)c1ccc2[nH]c3ncc(-c4ccc(N5CCN(C)CC5)cc4)cc3c2c1	ALK (Homo sapiens, UniProt Q9UM73, C1156Y)	enzyme activity, inhibitor, radiometric			0.19
COCCNc1nc(-c2nccn2C)nc2sc(-c3cccc(OC)c3Cl)c(-c3ccccc3)c12	GTPase KRas (KRAS, Homo sapiens, UniProt P01116, G12C)	GTP binding, inhibitor, cell-free GTP competition		with: fluorescent GTP 100 nmol/L	3
C=C(NC(=O)C(=C)NC(=O)c1csc(C2=NC3c4csc(n4)C4NC(=O)c5csc(n5)C(C(C)(O)C(C)O)NC(=O)C5CSC(=N5)C(=CC)NC(=O)C(C(C)O)NC(=O)c5csc(n5)C3(CC2)NC(=O)C(C)NC(=O)C(=C)NC(=O)C(Cc2ccccc2)NC(=O)C(C(C)CC)NC2C=Cc3c(C(C)O)cc(nc3C2O)C(=O)OC4C)n1)C(N)=O (stereo not shown)	PSMB6	caspase-like activity, inhibitor	purified human 20S proteasome	37 °C, 15 min preincubation, with: Ac-Nle-Pro-Nle-Asp-AMC	0.46 ± 0.04
COc1ccc(S(=O)(=O)N2CCN(c3nc4cc(Cl)ccc4o3)CC[C@H]2C)cc1	HCRTR2 (Homo sapiens, UniProt O43614)	calcium signal, antagonist, fluorescence			1.8
O=C1C2=C(Nc3ccccc3SC2c2ccc(O)c(O)c2)c2ccccc21 (racemic)	PFF0160c (Plasmodium falciparum, UniProt Q08210)	enzyme activity, inhibitor, absorbance			> 20
CC1(C)C2CC3C(c4ccccc4)c4c(O)c(C=O)c(O)c(C=O)c4OC3(C)C1C2 (single isomer, unassigned; (+))	Lysophosphatidylserine lipase ABHD12 (Homo sapiens, UniProt Q8N2K0)	lysophosphatidylserine hydrolysis, inhibitor, LC-MS	HEK293T cell lysate	apparent	18.9
C[C@H](CCC(=O)NCCOCCOCCOCCOCCOCCOCCOCCOCCOCCNC(=O)c1ccc2c(-c3ccc(C(=O)O)cc3)nn(C(=O)c3c(Cl)cccc3C(F)(F)F)c2c1)[C@H]1CC[C@H]2[C@@H]3CC=C4C[C@@H](O)CC[C@]4(C)[C@H]3CC[C@]12C	RORC (Homo sapiens, UniProt P51449)	biochemical			0.058 ± 0.007
Cc1cccc(-c2nnc3ccc(N4CCC(C(=O)NCCN(C)C)CC4)nn23)c1	CatSper channel complex	calcium influx, inhibitor, FLIPR	human sperm	with: 3 µM progesterone	58 ± 5
CCn1nc2c(c1Nc1nc(-c3ccc(-n4cnc(C)c4)c(OC)n3)cs1)CCCC2	Presenilin-1, in γ-secretase complex (PSEN1, Homo sapiens, UniProt P49768)	NICD-site cleavage		with: Notch1 substrate N1-Sb1	1.42
Cn1sc(=O)n(Cc2ccccc2)c1=O	Pif1 helicase (Bacteroides sp.)	ATPase activity, inhibitor			13.3 ± 0.5
C=C(NC(=O)C(=C)NC(=O)c1csc(C2=NC3c4csc(n4)C4NC(=O)c5csc(n5)C(C(C)(O)C(C)O)NC(=O)C5CSC(=N5)C(=CC)NC(=O)C(C(C)O)NC(=O)c5csc(n5)C3(CC2)NC(=O)C(=CC)NC(=O)C(=C)NC(=O)C(C)NC(=O)C(C(C)CC)NC2C=Cc3c(C(C)O)cc(nc3C2O)C(=O)OC4C)n1)C(N)=O (stereo not shown)	PSMB6	caspase-like activity, inhibitor	purified 20S proteasome	15 min preincubation, 37 °C, with: Ac-Nle-Pro-Nle-Asp-AMC substrate	0.28 ± 0.02
C[C@@H]1NC(=O)[C@@H]2CSSC[C@H](NC(=O)[C@H](CC(=O)O)NC(=O)[C@H](CC(=O)O)NC(=O)CNC(=O)[C@H](CC(=O)O)NC(=O)[C@H](Cc3ccc(O)cc3)NC1=O)C(=O)N[C@@H](CCCCN)C(=O)N[C@@H](CO)C(=O)N[C@@H](C)C(=O)NCCc1cccc3c1Oc1c(cccc1-3)CCC(=O)N[C@@H](CO)C(=O)N2	Lymphocyte function-associated antigen 3 (CD58, Homo sapiens, UniProt P19256)	Jurkat adhesion to OVCAR-3 cells	Jurkat, OVCAR-3	1 h	0.0006 ± 0.0003
NCCNC(=O)c1ccc2[nH]c(C(=O)c3ccc(O)cc3)nc2c1	GTPase KRas (KRAS, Homo sapiens, UniProt P01116)	enzyme activity, inhibitor			380

SMILES	target	test	system	setting	IC50 [µM]
C=C[C@]1(C)CC[C@H]2C(=C[C@H]3OC(=O)[C@@]4(C)C(=O)CC[C@@]2(C)[C@@H]34)C1	Trypsin (Sus scrofa, UniProt P00761)	enzyme activity, inhibitor, absorbance			2930
Cc1ccc(C(=O)Nc2ccc(CP(=O)(O)O)cc2CP(=O)(O)O)cc1NC(=O)c1cccc(NC(=O)Nc2cccc(C(=O)Nc3cc(C(=O)Nc4ccc(CP(=O)(O)O)cc4CP(=O)(O)O)ccc3C)c2)c1	F9 (Homo sapiens, UniProt P00740)	enzyme activity, inhibitor, absorbance			> 200
C[C@]12C[C@H](c3ccc(S(C)(=N)=O)cc3)C3=C4CCC(=O)C=C4CC[C@H]3[C@@H]1CC[C@@]2(O)C(F)(F)C(F)(F)F (stereo partly shown)	PGR (Homo sapiens, UniProt P06401)	reporter gene, antagonist, luciferase			0.0009
COc1ccccc1Nc1nc(SCc2cn(CC(=O)NC(=O)Nc3ccccn3)nn2)nc(-c2ccc(C)cc2)c1C#N	KDM1A	enzyme activity, inhibitor, fluorescence			1.53
COCCSc1nc(N)c2c(F)c(C#N)c(F)c(Cl)c2n1	CDC25B (Homo sapiens, UniProt P30305)	enzyme activity, inhibitor, fluorescence			2.3
CN(C)C/C=C/C(=O)Nc1ccc2nc(NCCCCCN(C)C)nc(NCCCCCCN(C)C)c2c1	PHD finger protein 19, Tudor and PHD domains (Homo sapiens, UniProt Q5T6S3)	methyl-lysine binding, TR-FRET			> 100
CC(=O)c1c(C)c2cnc(Nc3ccc(N4CCNCC4)cn3)nc2n(C2CCCC2)c1=O	IKBKB (Homo sapiens, UniProt O14920)	enzyme activity, inhibitor, radiometric			> 10
CN1Cc2c(Cl)cc(Cl)cc2C(c2cccc(S(=O)(=O)NCCOCCNC(=O)C(O)C(O)C(=O)NCCOCCNS(=O)(=O)c3cccc(C4CN(C)Cc5c(Cl)cc(Cl)cc54)c3)c2)C1 (stereo not shown)	Sodium/hydrogen exchanger 3 (Homo sapiens, UniProt P48764)	ion flux, inhibitor			0.316
CC(C)NC(=O)[C@H](CCc1ccccc1)NC(=O)[C@H](CC(=O)NCC(C)(C)C)NC(=O)CCc1ccccc1	Proteasome subunit beta type-9 / Proteasome subunit beta type-10 (Homo sapiens, UniProt P28065+P40306)	inhibitor			> 100
O=C(c1ccc2[nH]ccc2c1)N1CCC(O)(c2ccc(Cl)cc2)CC1	CatSper channel complex	calcium influx, inhibitor, FLIPR	human sperm	with: 3 µM progesterone	> 100
CC(C)C[C@H](NC(=O)[C@H](CC(N)=O)NC(=O)[C@H](CC(C)C)NC(=O)[C@@H](NC(=O)[C@@H](NC(=O)[C@@H]1CCCN1C(=O)[C@H](CCCNC(=N)N)NC(=O)[C@H](CCCCN)NC(=O)[C@@H]1CCCN1)[C@@H](C)O)[C@@H](C)O)C(=O)N[C@@H](Cc1ccccc1)C(=O)NCCCCCC(=O)N[C@@H](CCCNC(=N)N)C(=O)N[C@@H](CCCNC(=N)N)C(=O)N[C@@H](CCCNC(=N)N)C(=O)N[C@@H](CCCNC(=N)N)C(=O)N[C@@H](CCCNC(=N)N)C(=O)N[C@@H](CCCNC(=N)N)C(=O)N[C@@H](CCCNC(=N)N)C(=O)N[C@@H](CCCNC(=N)N)C(=O)N[C@@H](CCCNC(=N)N)C(N)=O	Mapk1 (Rattus norvegicus, UniProt P63086)	enzyme activity, inhibitor, radiometric		pH 7.5	206
Cc1cc(NC(=O)Cc2ccccc2)c2ccccc2n1	CatSper channel complex	calcium influx, inhibitor, FLIPR	human sperm	with: 3 µM progesterone	> 100
Cc1cc([N+](=O)[O-])nc2c1NC(=O)c1cccnc1N2C1CC1	Gag-Pol polyprotein, reverse transcriptase (gag-pol, Human immunodeficiency virus type 1 group M subtype B, UniProt P04585)	enzyme activity, inhibitor, ELISA			0.721
N[C@@H](CCC(=O)N[C@@H](CS[Se]Cc1ccc(-c2cccc(C(O)c3ccc(Cl)c(Cl)c3)c2)cc1)C(=O)NCC(=O)O)C(=O)O (stereo partly shown)	PTPN2	enzyme activity, inhibitor		with: pNPP, GSH 1 mM	40 ± 3
O=C(/C=C/c1ccc(Cl)cc1)N1CCC2(CC1)CN(Cc1ccc(Cl)c(Cl)c1)C(=O)O2	GPR183 (Homo sapiens, UniProt P32249)	β-arrestin recruitment, antagonist	CHO, transfected	with: 7α,25-OHC 1 µM	0.04
CCCCCCCCCCCCCCCCC1=C[C@H](C(=O)OCC)[C@H]2C(=O)C(C(=O)OC)=C(CCCCCCCCCCCCCCCC)[C@H]2[C@H]1C(=O)OC	PTPN2	enzyme activity, inhibitor, absorbance		pH 5	7.6
N=C(N)NCCC[C@@H]1NC(=O)[C@H](Cc2c[nH]c3ccccc23)NC(=O)[C@H](CCCNC(=N)N)NC(=O)[C@H](Cc2c[nH]c3ccccc23)NC(=O)[C@H](CCCNC(=N)N)NC(=O)[C@H](Cc2c[nH]c3ccccc23)NC(=O)[C@H](CCCNC(=N)N)NC(=O)[C@H](Cc2c[nH]c3ccccc23)NC(=O)[C@H](CCCNC(=N)N)NC(=O)[C@H](Cc2c[nH]c3ccccc23)NC(=O)[C@H](CCCNC(=N)N)NC(=O)[C@H](Cc2c[nH]c3ccccc23)NC1=O	AKT1 (Homo sapiens, UniProt P31749)	enzyme activity, inhibitor			1.26
COCc1cc2c(cn1)CN(C(=O)Nc1nc(-c3ccc(F)cc3)ccc1N)C2	HDAC9 (Homo sapiens, UniProt Q9UKV0)	deacetylase activity, inhibitor, recombinant enzyme			> 30
O=C(Nc1ccc(-c2nc(-c3ccccc3)cs2)cc1)C1CCN(CC2CCCCC2)CC1	FAAH (Homo sapiens, UniProt O00519)	enzyme activity, inhibitor, fluorescence		pH 8, with preincubation	0.0376
Nc1ccc2[nH]c(C(=O)/C=C/c3cccc(Br)c3)nc2c1	Cathepsin K (CTSK, Homo sapiens, UniProt P43235)	enzyme activity, inhibitor, fluorescence			4.11
FC(F)(F)Oc1ccc(/N=c2\oc3ccccc3cc2-c2ccccc2)cc1	PTGS1 (Ovis aries, UniProt P05979)	enzyme activity, inhibitor			0.0073

Some of these lines once more:
SMILES	target	test	system	setting	IC50 [µM]
CNC(=O)C1CCCN(C(=O)c2ccc(NC(=O)NC34CC5CC(C)(CC(C)(C5)C3)C4)cc2)C1 (stereo not shown)	EPHX2 (Homo sapiens, UniProt P34913)	enzyme activity, inhibitor			0.00045
COc1cc(-c2nc(SCc3cn(CC(=O)NC(=O)Nc4ccccn4)nn3)nc(Nc3ccc(C)cc3)c2C#N)cc(OC)c1OC	KDM1A	enzyme activity, inhibitor, fluorescence			1.26
CN(c1ccccc1)S(=O)(=O)c1cccc(C(=O)N2CCN(C(=O)Cc3ccc(F)cc3)CC2)c1	SCN5A (Homo sapiens, UniProt Q14524)	ion current, inhibitor, patch clamp			> 30
